# Published values collected from several papers.
# A part holds a random share of what one study measured.

# Study 1
# Target: Prothrombin, mature alpha-thrombin (F2, Homo sapiens, UniProt P00734)
# Technique: aptamer microarray, sandwich
# Molecule type: DNA with 2'F-ANA
# Sample: in vitro
# Tested at: 200 nM
# Setting: whole 15-mer aptamer, many near background
# Together with: Cy3 exosite-II aptamer, 400 nM
# Reading: higher = stronger binding
# Sequence: GGTTGGTGTGGTTGG
Modification,mean fluorescence intensity [a.u.]
2'F-ANA at 2 3 4 5 6 8 9 10 11 13 15,49.9
2'F-ANA at 3 5 9 11 13 14 15,74.4
2'F-ANA at 1 3 5 6 7 9 11 12 13 14,51.3
2'F-ANA at 2 3 4 5 6 8 10 11 13,54.4
2'F-ANA at 5 8 10 12 13 14,44.7
2'F-ANA at 1 2 3 4 8 10 15,58.6
2'F-ANA at 2 3 5 7 10 13,58.9
2'F-ANA at 2 3 4 10 11 12 14,200
2'F-ANA at 2 5 6 8 9 10 12 13 14,48.1
2'F-ANA at 4 5 9 10 12 14,227
2'F-ANA at 2 7 8 9 10 15,139
2'F-ANA at 1 2 4 5 10 11 13 14 15,46.4
2'F-ANA at 4 10 13 14 15,64.2
2'F-ANA at 4 8 9 10 11 12 14,57.2
2'F-ANA at 1 2 3 4 9 10,58.1
2'F-ANA at 1 2 3 4 8 9 11 12,316
2'F-ANA at 1 2 5 7 9 10 12 15,49
2'F-ANA at 1 2 4 5 6 8 12 13,73.8
2'F-ANA at 1 2 3 4 5 6 7 8 9 10 13 14 15,61.6
2'F-ANA at 1 3 5 8 11 12 13,89.2
2'F-ANA at 2 10 11 13,165
2'F-ANA at 8 9 13,431
2'F-ANA at 2 3 5 6 7 10 11,51.4
2'F-ANA at 3 4 6 7 8 9 11 13 15,400

# Study 2
# Target: Centromere-binding protein 1, full length, N-terminal tag (CBF1, Saccharomyces cerevisiae, UniProt P17106, residues 1-351)
# Sequence of UniProt P17106 (whole entry, looked up): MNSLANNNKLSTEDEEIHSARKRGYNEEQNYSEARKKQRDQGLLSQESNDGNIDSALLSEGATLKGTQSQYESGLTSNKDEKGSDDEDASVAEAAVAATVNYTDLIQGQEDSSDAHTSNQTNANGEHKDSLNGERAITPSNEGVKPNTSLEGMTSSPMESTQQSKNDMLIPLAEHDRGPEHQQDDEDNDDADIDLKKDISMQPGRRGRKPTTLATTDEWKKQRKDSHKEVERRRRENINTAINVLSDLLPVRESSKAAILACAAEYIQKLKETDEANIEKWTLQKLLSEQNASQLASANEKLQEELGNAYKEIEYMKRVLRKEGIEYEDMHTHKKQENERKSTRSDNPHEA
# Technique: protein-binding microarray
# Molecule type: double-stranded DNA, one strand shown
# Sample: in vitro
# Tested at: 0.8 µM
# Setting: whole 60-bp probe, no competitor
# Reading: higher = stronger binding
# All sequences stand within: … GTCTTGATTCGCTTGACGCTGCTG
Sequence,fluorescence intensity [a.u.]
GAATCCGCAGAACATGATGCTAAAAGCCAGCTATAG,528
GAAATTGGATACCCTGATGTAATGCAAAACTTTTAG,569
CTATGTACAGGGCCGCACATGATCACTATAACATTC,2340
GAAAGCCATAAGAGTTTCGTGATGGATGTAAGGTAG,536
CTAGATTCACGTGATATTCACGTGCATAAACCATTC,19500
CCTAACTACTATATGCACCTGCAATAGCTTCGTACA,538
TGTACGAAGCTATATCAGGAGGATATAGTAGTTAGG,532
GAAAAAGTTTCAAGTCACGTTCATTTTCACACCTAG,2250
CTATGAGTCGCACCCCACATGGATATCGTACTATTC,509
GAATACCATTTGGATCATGTGCCTTTGCCAACTTAG,1710
GAATTCACTCCTACAGGTGATTCCTTCGAGAAATAG,558
CTAGGAACAATACCTGATGTGGCGGAGGTGTCTTTC,500
GAATTCCTGTTTTTTGACGTGATATACTCAAAGTAG,602
TGTACGAAGCTATCCCACCTGCATATAGTAGTTAGG,469
CTATTCTTGCTAACCAACGTGTTGTATATGAAATTC,579
CCTAACTACTATAATCACAAGGAATAGCTTCGTACA,513
GAATGTGTATGTAAGCACGAGCACTAGTTCAATTAG,649
GAAAAAATTAGTACGCACGAGCGAATTAACATTTAG,766
CTACATCCTGCTCTACACGTTTGTACGTTTTCTTTC,543

# Study 3
# Target: Histone acetyltransferase KAT6A, both winged helices, GST fusion (KAT6A, Homo sapiens, UniProt Q92794, residues 1-181)
# Technique: protein binding microarray
# Molecule type: double-stranded DNA, one strand shown
# Sample: in vitro
# Tested at: not given
# Setting: 8-mer, flanks averaged, mean of 2 arrays, mostly near background
# Reference: not given
# Reading: higher = stronger binding
# Construct (chain): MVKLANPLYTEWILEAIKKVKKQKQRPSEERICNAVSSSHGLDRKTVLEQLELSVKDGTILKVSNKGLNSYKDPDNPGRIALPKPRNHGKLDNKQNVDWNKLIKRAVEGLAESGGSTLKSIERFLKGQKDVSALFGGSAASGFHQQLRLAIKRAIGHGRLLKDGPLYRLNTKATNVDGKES
Sequence,E-score
CGAGGGCA,-0.0208
CCCGCGTC,0.224
CGACTCAA,-0.105
ACCAATGG,-0.113
CCGGCAAA,0.18
AGGCGTTC,0.0637
CCGCCACA,0.118
GCGTCTCA,0.183
CGACATAG,-0.0526
CGTATTAC,0.069
CCCGGAGG,-0.0463
ACCTTCGC,0.0512
CATGAAGA,-0.143
CGTTTACC,0.116
GAAATACC,-0.0403
GACAGAGC,-0.0788
CCTCGAAG,-0.13
AACCCTCA,-0.126
CTAGGGCC,-0.0383
ACTAGGAG,-0.172

# Study 4
# Target: Ras GTPase-activating protein-binding protein 1, full length (G3BP1, Homo sapiens, UniProt Q13283)
# Sequence of UniProt Q13283 (whole entry, looked up): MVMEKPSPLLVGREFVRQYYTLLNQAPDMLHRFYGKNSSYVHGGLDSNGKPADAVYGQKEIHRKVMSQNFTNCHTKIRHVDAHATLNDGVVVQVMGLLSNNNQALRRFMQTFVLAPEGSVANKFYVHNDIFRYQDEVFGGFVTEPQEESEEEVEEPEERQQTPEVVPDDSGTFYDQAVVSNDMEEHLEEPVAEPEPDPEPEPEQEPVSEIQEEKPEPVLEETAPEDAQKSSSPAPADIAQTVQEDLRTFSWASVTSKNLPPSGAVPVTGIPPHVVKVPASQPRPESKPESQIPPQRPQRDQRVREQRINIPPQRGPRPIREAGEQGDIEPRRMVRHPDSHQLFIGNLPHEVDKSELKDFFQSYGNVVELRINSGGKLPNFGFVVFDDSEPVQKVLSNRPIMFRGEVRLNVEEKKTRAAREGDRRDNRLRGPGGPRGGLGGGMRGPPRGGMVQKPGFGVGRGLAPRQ
# Technique: RNA Bind-n-Seq
# Molecule type: RNA
# Sample: in vitro
# Tested at: 200 nM
# Setting: whole 134-nt RNA, ends assumed
# Together with: 150 mM LiCl
# Reference: input library
# Reading: higher = stronger binding
# All molecules: 7-deaza-guanosine replaces G
# All sequences stand within: GGGAGUUCUACAGUCCGACGAUC … UGGAAUUCUCGGGUGUCAAGG
Sequence,log2 enrichment
CACAGACAACACGCACCCACACAGACACAGAGGGAAGAAAUUGGGAUGGGGACAGGGUGCACAGCAGGGCGGGGUAGGACCCCAGCCCCU,-1.2
GUCCUGUGCUACACAUCGUAUGUACCGAAUCGGGAAAAAGGGAAAAAGGGUUUUUGGGAAAGUAUUAUGUUACGCCGUUCGGAUCUGCAC,-1.2
ACCAUGCAGGUGGGCAUCUUUGGGAAGUGGGGCAAGGGGGGGAUAGGGAGGGGGGUAACACUUUGGGAAGAGGUGGUCCCAGGUCGUUUC,-0.0908
AGUUCUAUCUCUGGGGUGACUGCCGCAUAUAACCGAGAACAGCUGUGGCUGGCCAAUGAAGGCCUGAUCACCAGGCUGCAGGCUCGCUGC,0.338
UCCUGUGCUACACAUCGUAUGUACCGAAUCAAACCCCCAAACCCCCCCAAACCCCCAAAAAAGUAUUAUGUUACGCCGUUCGGAUCUGCA,0.0766
AGCCGAGCGGGAACGGAACCGACAGCUGGAGCGAGAGAAACGUCGGGAGCACAGUCGGGAGAGGGACAGGGAGAGAGAGAGAGAAAGGGA,0.309
ACCAUGCUGGUGGGCAUCUUUGGGAAGUGGGGCAAGGGGGGGAUAGGGAGGGGGGUAACACUUUGGGAACAGGUGGUCCCAGGUCGUUUC,0.426
UCAAGUCCUGUGCUACACAUCGUAUGUACCGAAUCGGGCCCGGGCCCGGCCCGGGAAAGUAUUAUGUUACGCCGUUCGGAUCUGCACUUC,-1.01

# For quick reference, copied from above (study 1):
Modification,mean fluorescence intensity [a.u.]
2'F-ANA at 4 10 13 14 15,64.2
2'F-ANA at 4 8 9 10 11 12 14,57.2
2'F-ANA at 1 2 3 4 9 10,58.1
2'F-ANA at 1 2 3 4 8 9 11 12,316
2'F-ANA at 1 2 5 7 9 10 12 15,49
2'F-ANA at 1 2 4 5 6 8 12 13,73.8
2'F-ANA at 1 2 3 4 5 6 7 8 9 10 13 14 15,61.6
2'F-ANA at 1 3 5 8 11 12 13,89.2
2'F-ANA at 2 10 11 13,165
2'F-ANA at 8 9 13,431
